Published values from different studies.
Compare with care: the assays were run in different laboratories.

`Cn1cncc1-c1c(F)cncc1NC(=O)c1c(N)nn2cc(F)cnc12` — result for “patients grade ≥3 Lymphocyte count decrease”: 33% (human patients; oral, 220 mg once daily, 2 weeks on 1 week off).
The maximum inhibition of `CCc1ccc(Cc2ccc3c(c2)[C@]2(OC3)O[C@H](CO)[C@@H](O)[C@H](O)[C@H]2O)cc1` is reported as 12% (human coronavirus OC43; virus-induced cell killing; MRC-5; screen).
For `C[C@@H]1OC(=O)NN=C1c1ccc(-c2ccc(F)cc2)c(C(F)(F)F)c1`, “patients with adverse event” read 0% (phase I trial, measured: Pneumonitis worst grade 3; human patients; 10 mg loading then 0.5 mg daily).
Under “patients with vomiting”, `O=C1Nc2cc3[nH]nc(-c4ccncc4)c3cc2CN1Cc1ccccc1` is recorded as 60% (CTCAE v4.03; human, relapsed or refractory advanced solid tumours; intravenous, 7.2 mg/kg, pooled schedules).
Under “patients with serious TEAE”, `COc1ccc(-c2c(-c3ccc(C#N)c(F)c3)nc(N3CCC(N)CC3)n(C)c2=O)cc1F` is recorded as 0% (measured: metastases to skin; human patients; oral, 60 mg, dose expansion).
For `Cc1cn([C@H]2O[C@@H](CO[P@@](=O)(N[C@@H](C)C(=O)OC(C)C)Oc3ccccc3)[C@H](O)[C@H]2F)c(=O)[nH]c1=O`, “patients with creatine kinase elevation” read 0% (measured: grade 1/2; human; 25 mg).
`C=CC(=O)Nc1cc(Nc2nccc(Nc3cc(Cl)c(F)cc3C(C)(C)O)n2)c(OC)cc1N1CC[C@@H](N(C)C)C1`: “patients with rash” 18.8% (human patients; oral, 200 mg, treatment-emergent adverse events).
With `CC[C@@H]1C(=O)N(C)c2cnc(Nc3ccc(C(=O)N[C@H]4CC[C@H](N5CCN(CC6CC6)CC5)CC4)cc3OC)nc2N1C(C)C` the maximum inhibition was 0% (human coronavirus OC43; virus-induced cell killing; MRC-5; maximum over 10 doses).
`COc1ncnn2ccc(-c3cnc4nc(C)n(Cc5nnc([C@@H](C)F)o5)c4c3)c12`: “patients with fatigue” 0% (human; oral, dose not given, grade 5).
`C[C@]1(O)C[C@@](N)(c2ccc(-c3nc4n(c3-c3ccccc3)COc3ccncc3-4)cc2)C1`: “patients with decreased appetite TEAE” 29.4% (human, advanced or metastatic solid tumours; dose not given, all patients).
For `CN(C)C(=O)c1cc2cnc(Nc3ccc(N4CCNCC4)cn3)nc2n1C1CCCC1`, “patients with adverse event” read 11.3% (measured: Hepatobiliary toxicity, AESI; human, HR+/HER2− advanced breast cancer; oral, dose not given, grade 3, CTCAE v4.03).
